# Measured values from different studies.
# Lines come from different studies, so protocols differ.
# Organism: Staphylococcus aureus
Structure (SMILES),test,system,conditions,MIC
C/C(=C\C(=O)OCCCCCCCC(=O)Nc1c2sscc-2[nH]c1=O)[C@@H](O)[C@@H]1OC[C@H](C/C=C/[C@@H](C)[C@H](C)O)[C@@H](O)[C@H]1O,,"MRSA COL, IleRS F587V/V631F mutant",,0.04 µM
CC[C@H](C)[C@H](NC(=O)[C@H](Cc1ccc(O)cc1)NC(=O)[C@@H](NC(=O)[C@H](Cc1c[nH]c2ccccc12)NC(=O)[C@@H]1CCCN1C(=O)[C@@H](NC(=O)[C@H](C)N)[C@@H](C)CC)[C@@H](C)CC)C(=O)N[C@@H](Cc1ccc(O)cc1)C(=O)N[C@@H](CCCNC(=N)N)C(=O)N[C@@H](CC(C)C)C(=O)N[C@@H](CC(C)C)C(=O)N[C@@H](CCCNC(=N)N)C(=O)N[C@@H](CCCCN)C(=O)NCC(=O)O,broth microdilution,ATCC 35556,"18 h, 37 °C",3.75 µM
CC[C@H](C)[C@H](NC(=O)[C@H](CC(C)C)NC(=O)[C@H](CCCCN)NC(=O)[C@@H](NC(=O)[C@H](C)NC(=O)[C@H](CCC(=O)O)NC(=O)[C@H](Cc1c[nH]cn1)NC(=O)[C@@H](NC(=O)[C@H](CCCCN)NC(=O)[C@H](CCC(N)=O)NC(=O)[C@H](Cc1ccccc1)NC(=O)[C@@H](NC(=O)[C@H](CCCCN)NC(=O)[C@H](CCCCN)NC(=O)[C@H](CC(C)C)NC(=O)[C@H](C)N)C(C)C)[C@@H](C)CC)[C@@H](C)CC)C(N)=O,broth microdilution,MW2 resistant,"18 h, 37 °C",8 µM
CC[C@H](C)[C@H](NC(=O)[C@H](CC(C)C)NC(=O)[C@H](CCCNC(=N)N)NC(=O)[C@H](Cc1c[nH]c2ccccc12)NC(=O)[C@H](CCCNC(=N)N)NC(=O)[C@H](CCCCN)NC(=O)[C@H](CCCNC(=N)N)NC(=O)[C@H](Cc1c[nH]c2ccccc12)NC(=O)[C@H](Cc1c[nH]cn1)NC(=O)[C@@H](NC(=O)CNC(=O)CNC(=O)[C@H](CCSC)NC(=O)[C@H](C)NC(=O)[C@@H](N)CC(C)C)C(C)C)C(=O)N[C@@H](C)C(=O)N[C@@H](CC(N)=O)C(=O)N[C@@H](CCSC)C(=O)N[C@@H](CCCNC(=N)N)C(=O)N[C@H](C(=O)N[C@@H](Cc1c[nH]c2ccccc12)C(=O)N[C@@H](Cc1c[nH]cn1)C(=O)N[C@@H](CCCNC(=N)N)C(=O)N1CCC[C@H]1C(=O)N[C@@H](CC(N)=O)C(=O)N[C@@H](Cc1ccccc1)C(=O)N[C@@H](CCCNC(=N)N)C(=O)N[C@@H](CC(=O)O)C(=O)N[C@@H](Cc1c[nH]cn1)C(=O)O)[C@@H](C)CC,broth microdilution,"ATCC 29213, Mueller-Hinton broth","16 to 20 h, 37 °C",37.9 µM
CN1C(=O)Cc2ccc(F)c(CCNCC[C@H]3CN(c4ccc5c(n4)NC(=O)CO5)C(=O)O3)c21,,ATCC 29213,,0.06 µg/mL
CC[C@H](C)[C@H](NC(=O)[C@H](CCCCN)NC(=O)[C@H](CCCCN)NC(=O)CNC(=O)[C@H](CCCCN)NC(=O)[C@H](CC(C)C)NC(=O)[C@H](CCCCN)NC(=O)[C@H](CCCNC(=N)N)NC(=O)[C@@H](NC(=O)[C@H](CC(C)C)NC(=O)[C@H](CCCNC(=N)N)NC(=O)[C@@H](N)CCCNC(=N)N)[C@@H](C)CC)C(=O)N[C@@H](Cc1ccc(O)cc1)C(=O)N[C@@H](CC(C)C)C(=O)N[C@@H](Cc1ccc(O)cc1)C(=O)N[C@@H](Cc1ccccc1)C(=O)N[C@@H](CCCCN)C(=O)N[C@@H](CC(C)C)C(=O)N[C@@H](CCC(N)=O)C(=O)N[C@@H](CC(C)C)C(=O)N[C@@H](CC(C)C)C(=O)N[C@@H](CCCCN)C(=O)N[C@@H](CCCCN)C(N)=O,,"CCARM 3090, methicillin-resistant, Mueller-Hinton broth",24 h,8 µM
Cl.O[C@]12C=C(c3nccc4c3[nH]c3ccccc34)[C@@H]3CCN(CCCC/C=C\CC1)C[C@@]31C[C@@H]3/C=C\CCCCN3[C@H]12,growth,ATCC 43300 methicillin-resistant,,20 µg/mL
c1ccc(CCOC2CCCc3c2[nH]c2ccccc32)cc1 (stereo not drawn),broth microdilution,SA113 ΔtarO,,> 16 µg/mL
CC[C@H](C)[C@H](N)C(=O)N[C@@H](CC(C)C)C(=O)NCC(=O)N[C@H](CCCNC(=N)N)C(=O)N[C@H](C(=O)N[C@@H](Cc1c[nH]c2ccccc12)C(=O)N[C@@H](CCCCN)C(=O)NCC(=O)N[C@H](C(=O)N[C@@H](CCCCN)C(=O)N[C@@H](CC(=O)O)C(=O)N[C@H](C(=O)N[C@@H](CC(C)C)C(N)=O)[C@@H](C)CC)[C@@H](C)CC)[C@@H](C)CC,broth microdilution,ATCC 25923,"concentration not given, together with: BSA",6.25 µM
CC[C@H](C)[C@H](NC(=O)[C@H](CC(C)C)NC(=O)[C@H](CCCNC(=N)N)NC(=O)[C@@H](N)CCCNC(=N)N)C(=O)N[C@@H](CC(C)C)C(=O)N[C@H](C(=O)N[C@@H](CCCCN)C(=O)N[C@H](C(=O)NCC(=O)N1CCC[C@H]1C(=O)N[C@H](C(=O)N[C@H](C(=O)N[C@@H](Cc1ccc(O)cc1)C(=O)N[C@@H](CCCCN)C(=O)N[C@@H](Cc1ccc(O)cc1)C(=O)N[C@@H](Cc1ccccc1)C(=O)N[C@@H](CCCCN)C(=O)N[C@@H](CCCCN)C(=O)N[C@@H](CCC(N)=O)C(=O)N[C@@H](CC(C)C)C(=O)N[C@@H](CC(C)C)C(=O)N[C@@H](CCCCN)C(=O)N[C@@H](CC(C)C)C(N)=O)[C@@H](C)CC)[C@@H](C)CC)[C@@H](C)O)[C@@H](C)O,,"CCARM 3089, methicillin-resistant, Mueller-Hinton broth",24 h,32 µM
COc1ccc2ccc(O)c(/C=N/[C@H]3CCCC[C@H]3/N=C/c3ccc(OCCN4CCCCC4)cc3O)c2c1,"bacterial growth, broth microdilution",vancomycin-intermediate,,> 40 µM
CC[C@H](C)[C@H](NC(=O)[C@H](CCCNC(=N)N)NC(=O)[C@H](CCCNC(=N)N)NC(=O)[C@H](CCCNC(=N)N)NC(=O)[C@H](CCCNC(=N)N)NC(=O)[C@H](CCCNC(=N)N)NC(=O)[C@@H](N)CCCNC(=N)N)C(=O)N[C@@H](CO)C(=O)N[C@@H](Cc1ccccc1)C(=O)N[C@@H](CC(C)C)C(=O)NCC(=O)N[C@@H](CO)C(=O)N[C@@H](CCCCN)C(=O)N[C@@H](CCCCN)C(=O)N[C@@H](CCCCN)C(=O)N[C@@H](CCCCN)C(=O)N[C@@H](CCCCN)C(=O)N[C@@H](CC(C)C)C(=O)N[C@@H](CC(C)C)C(=O)N[C@@H](CCCCN)C(=O)N[C@@H](CCCNC(=N)N)C(N)=O,broth microdilution,ATCC 29213,highest value reported,64 µM

# Excerpt of the above:
Structure (SMILES),test,system,conditions,MIC
CC[C@H](C)[C@H](N)C(=O)N[C@@H](CC(C)C)C(=O)NCC(=O)N[C@H](CCCNC(=N)N)C(=O)N[C@H](C(=O)N[C@@H](Cc1c[nH]c2ccccc12)C(=O)N[C@@H](CCCCN)C(=O)NCC(=O)N[C@H](C(=O)N[C@@H](CCCCN)C(=O)N[C@@H](CC(=O)O)C(=O)N[C@H](C(=O)N[C@@H](CC(C)C)C(N)=O)[C@@H](C)CC)[C@@H](C)CC)[C@@H](C)CC,broth microdilution,ATCC 25923,"concentration not given, together with: BSA",6.25 µM
